Measured values of several laboratories.
± gives the spread as reported. ≈ marks a conversion by molar mass, not a printed value.
inhA: Enoyl-[acyl-carrier-protein] reductase [NADH] (inhA, Mycobacterium tuberculosis, UniProt P9WGR1)

SMILES | tested on | assay | test system | setting | scale | endpoint | result
NC(=O)c1ncn([C@@H]2O[C@H](CO)[C@@H](O)[C@H]2O)n1 | Influenza A virus H1N1 A/Tianjin Jinnan/15/2009 | viral replication | MDCK | – | – | IC50 | 3.18 mg/L
NCCCNCCCCN(CCCN)/[N+]([O-])=N/O | Sensor histidine kinase PdtaS (pdtaS, Mycobacterium tuberculosis, UniProt P9WGL4, C57A) | – | – | – | – | dimerization affinity | no effect
Nc1cccc(F)c1C(=O)O | Mycobacterium bovis BCG | – | compound-resistant mutants | concentration not given | relative to: wild type | MIC fold change | 15 fold
NNC(=O)c1ccncc1 | Mycobacterium tuberculosis | – | H37Rv inhA M103T mutant | concentration not given | relative to: wild type H37Rv | MIC fold change | 1 fold
CCC(CC)[C@H](NC(C)=O)[C@@H]1[C@H](O)[C@@H](C(=O)O)C[C@H]1N=C(N)N | neuraminidase (Influenza B virus, UniProt C0LT34) | – | – | – | – | IC50 | 1 ± 0.3 nM
O=C1c2c(O)c(=O)ccn2N([C@@H]2c3ccccc3SCc3c2ccc(F)c3F)[C@@H]2COCCN12 | Influenza A virus | viral replication | A(H1N1)pdm09 rg-A/California/04/2009 | mean | – | EC50 | 0.66 ± 0.1 nM
CCc1oc2ccccc2c1/C=C/C(=O)N(CCOC)Cc1nc2ccccc2c(=O)[nH]1 | inhA | enzyme activity | – | – | – | binding efficiency index | 11
CC(=O)N[C@H]1[C@H]([C@H](O)[C@H](O)CO)OC(C(=O)O)=C[C@@H]1O | Influenza A virus | viral replication | A/Paris/1170/2007 (H1N1) | 72 h | – | EC50 | 8000 nM
CCOC(=O)C1=C[C@@H](OC(CC)CC)[C@H](NC(C)=O)[C@@H](N)C1 | Influenza A virus | viral replication | A/TianJin-JinNan/15/2009 (H1N1) | – | – | EC50 | > 100000 nM
CS(=O)(=O)Nc1ncn(-c2cc(F)c(COc3ccc(OS(=O)(=O)F)cc3)c(F)c2)n1 | Mycobacterium tuberculosis | – | Pks13 wild-type overexpression | – | – | MIC90 | 0.29 µM (≈ 0.139 µg/mL)
CCOC(=O)C1=C[C@@H](OC(CC)CC)[C@H](NC(C)=O)[C@@H](N)C1 | Influenza A virus H1N1 A/Tianjin Jinnan/15/2009 | viral replication | MDCK, resistant to compound | – | – | IC50 | 50.7 mg/L
Cc1cc2ncn(Cc3ccc(Cl)c(Cl)c3)c2cc1C | inhA | enzyme activity | – | – | – | binding efficiency index | 16
[Ca+2] | Halyomorpha halys | outward current, inhibitor, electrophysiology | – | concentration not given, D721A D731A in Nan | – | inhibition | 18.5%

Some of these lines once more:
SMILES | tested on | assay | test system | setting | scale | endpoint | result
NNC(=O)c1ccncc1 | Mycobacterium tuberculosis | – | H37Rv inhA M103T mutant | concentration not given | relative to: wild type H37Rv | MIC fold change | 1 fold
CCC(CC)[C@H](NC(C)=O)[C@@H]1[C@H](O)[C@@H](C(=O)O)C[C@H]1N=C(N)N | neuraminidase (Influenza B virus, UniProt C0LT34) | – | – | – | – | IC50 | 1 ± 0.3 nM
